# Measured values gathered from unrelated publications.
# A part holds a random share of what one study measured.

# Series 1
# Target: Interferon regulatory factor 3, full length, phosphomimetic (IRF3, Homo sapiens, UniProt Q14653, residues 1-427, S386D/S396D/S398D/S402D/T404D/S405D)
# Technique: protein-binding microarray
# Molecule type: double-stranded DNA, one strand shown
# Medium: in vitro
# Concentration: 2540 nM top
# Notes: 60-bp whole probe
# Added: salmon DNA 0.4 mg/ml
# Relative to: random background probes
# Reading: higher = stronger binding
# Shared flanks, not repeated: GCCTAGCAC … GTCTTGATTCGCTTGACGCTGCTG
# Residues (chain): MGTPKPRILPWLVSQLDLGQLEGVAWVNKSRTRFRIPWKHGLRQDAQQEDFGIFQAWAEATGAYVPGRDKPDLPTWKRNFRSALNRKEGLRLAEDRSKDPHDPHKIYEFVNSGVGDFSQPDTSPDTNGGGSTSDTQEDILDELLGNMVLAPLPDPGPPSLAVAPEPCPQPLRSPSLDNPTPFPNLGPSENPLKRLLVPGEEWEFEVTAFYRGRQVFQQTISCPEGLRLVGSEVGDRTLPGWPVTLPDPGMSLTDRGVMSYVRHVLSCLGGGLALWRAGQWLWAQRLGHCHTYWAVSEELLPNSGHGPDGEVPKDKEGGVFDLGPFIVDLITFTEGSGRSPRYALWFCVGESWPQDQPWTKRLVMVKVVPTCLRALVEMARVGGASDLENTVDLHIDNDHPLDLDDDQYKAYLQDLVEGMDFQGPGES
Strand,fitted relative affinity [z-score]
TCACTCCTCTTTTTTTGACTGTGCTAG,1.12
TCATGTCTGATTATTTAACTGTGCTAG,0.265
TTAGGTATCGCGTTTCGGTTAGTGCTA,2.77
TTAGGACTGGGGACTGGGCTAGTGCTA,-1.16
TCACCTATCCAAGTTCCCACTGTGCTA,1.23
GACGCTTTCCTACTGCTGACGTGCTAG,3.04
TCCATTTTCTGAATGCTACTGTGCTAG,2.88
GACGAACGGGGGTTTCGAGACGTGCTA,0.643
GACGGTTCGCTTTTCCTGACGTGCTAG,2.49
CGCTCTGTGCTCTTTGGGCTGTGCTAG,-0.285
GACGATATGAGACTGGAGACGTGCTAG,-0.26
TTAGGACTGCGTATCCTTTAGTGCTAG,0.957
TTAGATTTCCTTTCCCTTTAGTGCTAG,7.16
TCATGTCCCTGTTTCTAACTGTGCTAG,1.18
GACGGTTCCGGCTTCGGGACGTGCTAG,1.3
GGGCCGAGGCTGTGGCCACCGTGCTAG,-1.17
GACGATATCAGTTGCGAGACGTGCTAG,0.68
TTATGGTGTGGAGAAGGCACGTGCTAG,-0.782
TTAGATATCGGGACTGGATTCGTGCTA,-0.03

# Series 2
# Target: Phosphate system positive regulatory protein PHO4, full length, GST-tagged (PHO4, Saccharomyces cerevisiae, UniProt P07270, residues 1-312)
# Technique: competition protein-binding microarray
# Molecule type: double-stranded DNA, one strand shown
# Medium: in vitro
# Concentration: 2 µM
# Notes: whole 60-bp probe, lowest competitor level
# Added: Cbf1 competitor, 0.05 µM
# Reading: higher = stronger binding
# Shared flanks, not repeated: … GTCTTGATTCGCTTGACGCTGCTG
# Residues (chain): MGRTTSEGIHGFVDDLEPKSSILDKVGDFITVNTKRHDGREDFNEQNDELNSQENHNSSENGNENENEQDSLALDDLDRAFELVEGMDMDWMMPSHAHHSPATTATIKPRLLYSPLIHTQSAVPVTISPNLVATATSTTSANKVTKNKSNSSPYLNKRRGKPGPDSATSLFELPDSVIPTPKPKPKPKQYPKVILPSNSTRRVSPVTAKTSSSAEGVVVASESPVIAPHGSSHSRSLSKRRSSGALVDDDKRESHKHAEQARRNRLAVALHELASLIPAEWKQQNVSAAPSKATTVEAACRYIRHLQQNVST
Strand,fluorescence intensity [a.u.]
TCCAGAAGAACCCGTCACGTTTTGGATTGGTTTTTG,11500
GTCTTGTCTCATTTTCACGTGCCATTCCCCACTTCA,15900
CTAACGAAGGTTTTTCACGTGTGATACAAGCCAAGT,12600
TCCTTAATGCCCAAGCACATGGGTCAGGGTTCATTA,11600
AAAGCGGTAATTTGTCACACAACTTCACATATCTAT,4570
TTGGATCTGACTCCTCACGTGGCAAATCTAAAATTG,15800
GTTTTGCTAGGTAACCACGTTGGTCTAGAAATCGCA,13200
CTAACGAAGGTTTGACGCGTGGGTGACAAGCCAAGT,9790
CCACCATCGTTACCAAATGTGACGGCTGCACCTAAA,4570
AGATTCTGCAAATGGTACGTGATGGTGGTCCGCGGA,6140
CTTTCCCGATCTTGTCACAGAACTTTAGCACATTTG,3820
CCGGTCCCCCGATCCCATGCGCCAGGCGCGCCGGCA,5510
ATATTGATGGATTGTCATGTGATAGATAATTTCGTT,6530
TGCCTATGGTAGCTGCATGATCATACAATGCACTCC,5280
TTACAGAGATACCAACACGTCCCATTGCAGTACATC,6070
CTAACGAAGGTTTGTGAGGTGGGTGACAAGCCAAGT,3570
CATACCCAACCTTTTCACGTGTCGTAAGATATTTGT,15200
GTCTTGTCTCATTGCTTGGTGGGTGTCCCCACTTCA,4790
CTAACGAAGGTTTGTCCGGTGGGTGACAAGCCAAGT,3650

# Series 3
# Target: RNA binding protein fox-1 homolog 2, RRM domain, GST-SBP tag (RBFOX2, Homo sapiens, UniProt O43251-10, residues 100-194)
# Technique: RNA Bind-n-Seq
# Molecule type: RNA
# Medium: in vitro
# Concentration: 365 nM
# Notes: natural RNA segment, single round, ends assumed
# Relative to: no-protein control
# Reading: higher = stronger binding
# Shared flanks, not repeated: GGGAGUUCUACAGUCCGACGAUC … UGGAAUUCUCGGGUGCCAA
# Target sequence (chain): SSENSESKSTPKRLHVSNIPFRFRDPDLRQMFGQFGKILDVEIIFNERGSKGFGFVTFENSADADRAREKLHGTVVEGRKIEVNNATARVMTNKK
Strand,RBNS enrichment (R)
AGACCACGCCCGUCCUGCCUGUGGCGCCGUCUCCAGGGGCUGCUUCCUCCUGGAAAUUGACGAGGGGUGUCUUGGGCAGAGCUGGCUCUGAGCGCCUCCAUCCAAGGCCA,0.399
UAAGAUACUUUUCCCCACUCCUUUCUUUGUGUGUAGUGCAGCAACAGUUUGGUCUGCAUUUGUUAGAAGUGUAACUCCUAACAACCCAAAGACCUAUUUAAUAAUUGGUG,0.303
UGACUAAGAAACAGAGUCCAAGCAGAGAAGGUAGGAACCCUCCAUAGCUCUCUGCCCUGAUGUGUGGGGGAACUAGGAAGAAGUCCUUUGACCUCACCAGGCCUCAUGCU,0.917
AUGGAAGAAAAUGGAAUUACUCCAAAAAGACAAGUGCUCAAGCAGCAAAAUCCUUACUUCCAGCAAAAUCCAAACUGCUGUCUCUUAAAUCUCUUAAACUCUCUUCUUCC,0.45
UAAUUAAAAUUCUGUUGAAGAAGAUAAAGUUUCAGAUAUGCCACUGGCUUGAGGAUUAGCUAAAGGUCUGUGUUUUCACAGCAGGAGUUAAUGUGCAGAGUUAACUGAAC,0.484
UGCUCUUGCACCAAGUGCCUUCUGCAUCCCUCAGUCCAUCCGCGUACCAGUAGCCUCCCGUCCUAAUUCUGUUCAAUAUCAGUUGUUCCUAAUAAGUAGAAUACACUACU,1.98
UGGAGACACUGUGUGUAUCUCUAGAUAAGAAGAUAUGCACCACGUUGAAAAUACUCAGUGUAGAUCUCUAUGUGUAUAGGUAUCUGUAUAUCUUUCCUUUUGUUUACAAC,0.301
ACUCGGACAACUUCCCAAGGCCGCCUCCUGCUAGCAAGAACAGAGUCCACCCUCCUCUGGAUAUUGGGGAGGGACGGAAGUGACAGGGUGUGGUGGUGGAGUGGGGAGCU,0.8

# Series 4
# Target: Prothrombin, mature alpha-thrombin (F2, Homo sapiens, UniProt P00734)
# Technique: aptamer microarray, sandwich
# Molecule type: DNA with 2'F-ANA
# Medium: in vitro
# Concentration: 200 nM
# Notes: whole 15-mer aptamer, many near background
# Added: Cy3 exosite-II aptamer, 400 nM
# Reading: higher = stronger binding
# Strand: GGTTGGTGTGGTTGG
Modification,mean fluorescence intensity
2'F-ANA at 7 8 9 11 12 15,682 a.u.
2'F-ANA at 1 3 5 10 14 15,44.7 a.u.
2'F-ANA at 3 4 5 6 7 8 10 12 13 14,49.2 a.u.
2'F-ANA at 3 7 8 10 11,620 a.u.
2'F-ANA at 3 6 7 8 9 10 11,482 a.u.
2'F-ANA at 1 4 8 13,119 a.u.
2'F-ANA at 2 3 4 5 8 10 11 12 13 15,74.3 a.u.
2'F-ANA at 1 3 4 9 12 13 15,253 a.u.
2'F-ANA at 3 9 11 13 14 15,542 a.u.
2'F-ANA at 1 2 3 4 6 7 8 9 10 12 13 15,72.8 a.u.
2'F-ANA at 3 5 7 11 13 14 15,55.6 a.u.
2'F-ANA at 1 4 5 6 8 9 12 13 14 15,46.7 a.u.
2'F-ANA at 2 3 4 5 7 9,104 a.u.
2'F-ANA at 1 2 8 9 10 13 15,111 a.u.
2'F-ANA at 1 2 4 6 8 10 11 14,47.9 a.u.
2'F-ANA at 1 2 3 4 6 9 11 13 15,90.4 a.u.
2'F-ANA at 1 2 4 5 6 7 8 9 11 12 13,87.7 a.u.

# Excerpt of the above (series 2):
Strand,fluorescence intensity [a.u.]
CTAACGAAGGTTTGACGCGTGGGTGACAAGCCAAGT,9790
ATATTGATGGATTGTCATGTGATAGATAATTTCGTT,6530
AGATTCTGCAAATGGTACGTGATGGTGGTCCGCGGA,6140
TTACAGAGATACCAACACGTCCCATTGCAGTACATC,6070
TGCCTATGGTAGCTGCATGATCATACAATGCACTCC,5280
TTGGATCTGACTCCTCACGTGGCAAATCTAAAATTG,15800
CCACCATCGTTACCAAATGTGACGGCTGCACCTAAA,4570
CTAACGAAGGTTTGTGAGGTGGGTGACAAGCCAAGT,3570
CTAACGAAGGTTTGTCCGGTGGGTGACAAGCCAAGT,3650
